Published values pooled from the literature.
Every numbered part comes from another study and shows a few of its results, in no order.

Set 1
Target: Centromere-binding protein 1, full length, N-terminal tag (CBF1, Saccharomyces cerevisiae, UniProt P17106, residues 1-351)
UniProt P17106, sequence (whole entry, looked up): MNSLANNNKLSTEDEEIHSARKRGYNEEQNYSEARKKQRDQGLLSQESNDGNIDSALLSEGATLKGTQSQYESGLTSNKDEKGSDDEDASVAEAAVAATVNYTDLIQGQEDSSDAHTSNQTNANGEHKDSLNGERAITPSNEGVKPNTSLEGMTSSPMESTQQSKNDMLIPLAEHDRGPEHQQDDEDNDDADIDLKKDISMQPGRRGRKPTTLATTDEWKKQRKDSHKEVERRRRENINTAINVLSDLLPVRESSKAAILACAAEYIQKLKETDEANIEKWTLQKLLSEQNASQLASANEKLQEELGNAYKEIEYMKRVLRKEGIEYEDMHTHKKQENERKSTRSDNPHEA
Method: protein-binding microarray
Form: double-stranded DNA, one strand shown
Sample: in vitro
Concentration: 0.8 µM
Notes: whole 60-bp probe, no competitor
Direction: higher = stronger binding
Constant ends, left off below: … GTCTTGATTCGCTTGACGCTGCTG
`CTAACATTTTAACTACACGTTTAAAATATTCAATTC` has a fluorescence intensity of 566 a.u.
For `GAAATTTGCCAGGGTCACAATGTCGTTTGCCTCTAG`, the fluorescence intensity was 537 a.u.
The fluorescence intensity of `CTAGATTTATACCTCCTGACCAAATGGGAAAATTTC` is reported as 917 a.u.
`CCTAACTACTATAAAGAGGTGACATAGCTTCGTACA` gave a fluorescence intensity of 505 a.u.
`CTAAAGTCATTTACCCAGGCGTGATTATAAATTTTC` has a fluorescence intensity of 1250 a.u.
With `CTAGCGTTAGCAGGTGGTGCCAGTGGATTTTCATTC` the fluorescence intensity was 525 a.u.

Set 2
Target: Fragile X messenger ribonucleoprotein 1, C-terminal low-complexity region (Fmr1, Mus musculus, UniProt P35922)
Method: RNA Bind-n-Seq
Form: RNA
Sample: in vitro
Concentration: 200 nM
Notes: whole 134-nt RNA, ends assumed
With: 150 mM KCl
Relative to: input library
Direction: higher = stronger binding
Constant ends, left off below: GGGAGUUCUACAGUCCGACGAUC … UGGAAUUCUCGGGUGUCAAGG
For `CACAGACAACACGCACCCACACAGACACAGAGGGAAGGGGCUGGGAUGGGGACAGGGUGCACAGCAGGGCGGGGUAGGACCCCAGCCCCU`, the log2 enrichment was 1.24.
For `ACCAUGCAGGUUGGCAUCUUUGGGAAGUGGGGCAAGGGGGGGAUAGGGAGGGGGGUAACACUUUGGGAACAGGUGGUCCCAGGUCGUUUC`, the log2 enrichment was 1.1.
The log2 enrichment of `GCAGGAAGUAAAAACAAAUGGAAAUGCUUCGGAUAGUGGCAGGGGUGGGGGUUGCUAAGGAAAGGGAAAGAUGGGAGUGGGUAAAGAGUU` is reported as 0.119.
With `CCUCAAGUCCUGUGCUACACAUCGUAUGUACCGAAUCGGGGCGGGGCGGCGGAAAGUAUUAUGUUACGCCGUUCGGAUCUGCACUUCCAG` the log2 enrichment was -0.029.
`UGGGAGGUGGAUUUUGUUUAUUUUUUUAGCUCAUUUCCAGGGGUGGGAAUUUUUCUUUAAUAUGUGUCAUGAAUAAAGUUGUUUUUGAAA` gave a log2 enrichment of 0.315.

Set 3
Target: Interferon regulatory factor 3, full length, phosphomimetic (IRF3, Homo sapiens, UniProt Q14653, residues 1-427, S386D/S396D/S398D/S402D/T404D/S405D)
Method: protein-binding microarray
Form: double-stranded DNA, one strand shown
Sample: in vitro
Concentration: 2540 nM top
Notes: 60-bp whole probe
With: salmon DNA 0.4 mg/ml
Relative to: random background probes
Direction: higher = stronger binding
Constant ends, left off below: GCCTAGCAC … GTCTTGATTCGCTTGACGCTGCTG
Construct (chain): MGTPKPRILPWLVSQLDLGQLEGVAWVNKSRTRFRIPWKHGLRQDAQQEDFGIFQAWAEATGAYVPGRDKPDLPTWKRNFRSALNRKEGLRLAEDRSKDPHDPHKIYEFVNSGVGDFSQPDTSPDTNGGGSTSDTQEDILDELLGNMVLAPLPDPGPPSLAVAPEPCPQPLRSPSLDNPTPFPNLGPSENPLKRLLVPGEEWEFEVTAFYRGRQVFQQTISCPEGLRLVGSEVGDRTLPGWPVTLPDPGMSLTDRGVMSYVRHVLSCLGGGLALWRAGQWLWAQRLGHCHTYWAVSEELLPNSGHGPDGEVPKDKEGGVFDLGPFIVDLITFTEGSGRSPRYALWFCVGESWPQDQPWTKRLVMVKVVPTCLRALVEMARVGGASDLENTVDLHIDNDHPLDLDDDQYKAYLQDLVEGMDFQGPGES
For `GACGATACCAGTTTCGAGACGTGCTAG`, “fitted relative affinity” read 2.35 z-score.
`TAAGGTTTCGGTATCGGTTAGTGCTAG` — result for “fitted relative affinity”: 8.9 z-score.
`TTAGATTGCGGGTATCGATTAGTGCTA`: “fitted relative affinity” 0.211 z-score.
`TCATTTTTTTCATTATTACTGTGCTAG` — result for “fitted relative affinity”: 1.5 z-score.
For `GACGGACTGCTACTGCTGTCGTGCTAG`, “fitted relative affinity” read -0.559 z-score.
`GACGGCCTCGGTCTCGGGACGTGCTAG` — result for “fitted relative affinity”: -0.854 z-score.

Single results of other studies
For `PhoQ, residues 284 288 289 292 302 303 AQGLTV`, the fold induction was 1.89 (PhoP, residues 12 14 15 18 19 NYFRM (Escherichia coli, UniProt P23836); Sort-seq, refers to: YFP reporter; E. coli; PhoQ-PhoP variant library, with: 10 µM Mg2+; relative to: high Mg2+ state, higher = stronger signaling).

Excerpt of the above (set 1):
`CTAACATTTTAACTACACGTTTAAAATATTCAATTC` has a fluorescence intensity of 566 a.u.
